Measurements from different studies.
A part holds a random share of what one study measured.
Sequence of UniProt P27361 (whole entry, looked up): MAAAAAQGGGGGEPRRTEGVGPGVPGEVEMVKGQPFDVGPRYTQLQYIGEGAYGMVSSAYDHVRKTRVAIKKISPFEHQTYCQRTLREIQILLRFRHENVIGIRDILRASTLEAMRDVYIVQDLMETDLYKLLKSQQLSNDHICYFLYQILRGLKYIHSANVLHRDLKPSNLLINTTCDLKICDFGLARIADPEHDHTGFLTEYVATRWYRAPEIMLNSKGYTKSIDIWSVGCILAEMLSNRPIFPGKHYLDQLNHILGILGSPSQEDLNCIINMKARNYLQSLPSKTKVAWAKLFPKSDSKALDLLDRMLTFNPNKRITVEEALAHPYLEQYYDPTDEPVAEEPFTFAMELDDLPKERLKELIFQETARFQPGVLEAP
Sequence of UniProt P22607 (whole entry, looked up): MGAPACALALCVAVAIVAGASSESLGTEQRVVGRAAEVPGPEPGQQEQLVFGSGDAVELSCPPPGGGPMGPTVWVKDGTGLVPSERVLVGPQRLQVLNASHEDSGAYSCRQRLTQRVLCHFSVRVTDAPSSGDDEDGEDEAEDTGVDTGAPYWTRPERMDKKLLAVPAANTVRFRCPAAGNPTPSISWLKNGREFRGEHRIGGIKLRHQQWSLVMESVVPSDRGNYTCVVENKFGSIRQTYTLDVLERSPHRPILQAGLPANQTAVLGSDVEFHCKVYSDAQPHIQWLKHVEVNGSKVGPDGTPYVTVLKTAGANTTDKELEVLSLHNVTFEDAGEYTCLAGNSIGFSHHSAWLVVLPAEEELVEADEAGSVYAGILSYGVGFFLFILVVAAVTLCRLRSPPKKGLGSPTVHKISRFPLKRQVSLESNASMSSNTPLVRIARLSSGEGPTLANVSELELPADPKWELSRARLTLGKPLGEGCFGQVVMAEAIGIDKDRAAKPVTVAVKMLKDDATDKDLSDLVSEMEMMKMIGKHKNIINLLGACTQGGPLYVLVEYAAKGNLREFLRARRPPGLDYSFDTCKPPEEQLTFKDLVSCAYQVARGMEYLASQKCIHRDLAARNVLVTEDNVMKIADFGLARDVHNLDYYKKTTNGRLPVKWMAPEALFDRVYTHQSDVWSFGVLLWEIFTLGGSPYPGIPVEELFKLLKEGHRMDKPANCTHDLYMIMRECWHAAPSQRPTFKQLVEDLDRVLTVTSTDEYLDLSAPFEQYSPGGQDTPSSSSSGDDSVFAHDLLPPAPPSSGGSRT
Sequence of UniProt P11362 (whole entry, looked up): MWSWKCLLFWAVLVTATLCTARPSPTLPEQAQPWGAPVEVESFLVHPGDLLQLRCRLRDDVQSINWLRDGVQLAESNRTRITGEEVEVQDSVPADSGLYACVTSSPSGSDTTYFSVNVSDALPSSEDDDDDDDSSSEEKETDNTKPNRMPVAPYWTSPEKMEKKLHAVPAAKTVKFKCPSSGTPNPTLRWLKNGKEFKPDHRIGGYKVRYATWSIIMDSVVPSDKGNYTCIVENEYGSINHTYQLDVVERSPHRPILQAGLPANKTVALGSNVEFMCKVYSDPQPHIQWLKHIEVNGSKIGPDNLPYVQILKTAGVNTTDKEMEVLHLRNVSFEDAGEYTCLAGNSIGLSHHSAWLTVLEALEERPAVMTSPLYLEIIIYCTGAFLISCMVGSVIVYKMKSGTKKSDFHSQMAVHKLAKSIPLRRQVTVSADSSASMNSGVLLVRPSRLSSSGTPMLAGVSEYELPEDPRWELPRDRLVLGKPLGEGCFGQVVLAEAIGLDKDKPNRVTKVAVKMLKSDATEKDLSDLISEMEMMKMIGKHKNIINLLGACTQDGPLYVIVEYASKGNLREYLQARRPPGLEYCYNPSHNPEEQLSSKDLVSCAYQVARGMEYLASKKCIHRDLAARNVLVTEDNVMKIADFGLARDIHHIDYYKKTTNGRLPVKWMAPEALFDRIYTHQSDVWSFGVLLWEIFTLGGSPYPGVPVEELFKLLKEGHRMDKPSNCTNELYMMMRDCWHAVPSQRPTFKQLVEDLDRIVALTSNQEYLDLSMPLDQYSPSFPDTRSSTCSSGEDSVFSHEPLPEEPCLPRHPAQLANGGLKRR
Sequence of UniProt P78368 (whole entry, looked up): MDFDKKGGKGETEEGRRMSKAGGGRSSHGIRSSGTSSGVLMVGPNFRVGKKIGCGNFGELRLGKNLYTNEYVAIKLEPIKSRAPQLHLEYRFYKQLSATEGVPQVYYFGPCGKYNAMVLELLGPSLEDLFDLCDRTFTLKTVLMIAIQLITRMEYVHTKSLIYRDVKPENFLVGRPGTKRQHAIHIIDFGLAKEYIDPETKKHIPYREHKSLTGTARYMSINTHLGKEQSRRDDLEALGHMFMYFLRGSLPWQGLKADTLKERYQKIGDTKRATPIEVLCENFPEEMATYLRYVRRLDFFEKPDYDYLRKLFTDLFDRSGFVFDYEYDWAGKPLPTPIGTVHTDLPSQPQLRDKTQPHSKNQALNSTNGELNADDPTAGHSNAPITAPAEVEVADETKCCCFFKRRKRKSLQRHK
Sequence of UniProt Q8WTQ7 (whole entry, looked up): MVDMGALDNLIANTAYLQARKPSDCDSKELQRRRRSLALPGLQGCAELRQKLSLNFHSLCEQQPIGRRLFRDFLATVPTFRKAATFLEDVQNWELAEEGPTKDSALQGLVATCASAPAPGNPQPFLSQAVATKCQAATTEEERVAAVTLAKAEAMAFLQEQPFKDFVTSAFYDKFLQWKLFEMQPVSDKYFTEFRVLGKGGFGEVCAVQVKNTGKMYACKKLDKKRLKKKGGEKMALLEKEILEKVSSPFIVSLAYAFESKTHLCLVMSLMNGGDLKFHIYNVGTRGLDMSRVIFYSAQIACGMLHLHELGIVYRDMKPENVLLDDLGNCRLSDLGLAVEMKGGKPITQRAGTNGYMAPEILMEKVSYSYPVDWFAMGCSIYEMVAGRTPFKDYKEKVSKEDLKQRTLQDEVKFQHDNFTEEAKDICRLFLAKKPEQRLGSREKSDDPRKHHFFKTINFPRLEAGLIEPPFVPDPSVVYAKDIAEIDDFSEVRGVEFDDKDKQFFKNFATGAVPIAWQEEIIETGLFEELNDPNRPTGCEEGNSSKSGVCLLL
Sequence of UniProt Q9HC98 (whole entry, looked up): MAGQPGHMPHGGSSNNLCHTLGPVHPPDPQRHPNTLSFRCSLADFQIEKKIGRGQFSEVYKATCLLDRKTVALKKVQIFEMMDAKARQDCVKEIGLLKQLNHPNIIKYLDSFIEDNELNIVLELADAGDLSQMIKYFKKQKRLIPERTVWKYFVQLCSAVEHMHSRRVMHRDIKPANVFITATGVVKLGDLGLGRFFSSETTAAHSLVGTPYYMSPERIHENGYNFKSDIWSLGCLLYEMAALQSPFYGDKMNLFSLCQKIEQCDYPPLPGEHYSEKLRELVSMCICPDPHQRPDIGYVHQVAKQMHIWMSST
Sequence of UniProt P36507 (whole entry, looked up): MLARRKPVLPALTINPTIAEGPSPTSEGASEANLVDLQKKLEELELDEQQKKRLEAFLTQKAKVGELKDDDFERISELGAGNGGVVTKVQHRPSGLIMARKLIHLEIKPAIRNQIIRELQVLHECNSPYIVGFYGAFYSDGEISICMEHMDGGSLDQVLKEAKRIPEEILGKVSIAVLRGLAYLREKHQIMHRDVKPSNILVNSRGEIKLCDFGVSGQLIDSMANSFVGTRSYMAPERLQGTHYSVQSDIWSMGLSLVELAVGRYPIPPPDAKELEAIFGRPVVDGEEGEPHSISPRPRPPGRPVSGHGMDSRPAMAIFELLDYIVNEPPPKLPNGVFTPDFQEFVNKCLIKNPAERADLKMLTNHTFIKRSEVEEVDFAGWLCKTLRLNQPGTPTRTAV
Sequence of UniProt Q96PY6 (whole entry, looked up): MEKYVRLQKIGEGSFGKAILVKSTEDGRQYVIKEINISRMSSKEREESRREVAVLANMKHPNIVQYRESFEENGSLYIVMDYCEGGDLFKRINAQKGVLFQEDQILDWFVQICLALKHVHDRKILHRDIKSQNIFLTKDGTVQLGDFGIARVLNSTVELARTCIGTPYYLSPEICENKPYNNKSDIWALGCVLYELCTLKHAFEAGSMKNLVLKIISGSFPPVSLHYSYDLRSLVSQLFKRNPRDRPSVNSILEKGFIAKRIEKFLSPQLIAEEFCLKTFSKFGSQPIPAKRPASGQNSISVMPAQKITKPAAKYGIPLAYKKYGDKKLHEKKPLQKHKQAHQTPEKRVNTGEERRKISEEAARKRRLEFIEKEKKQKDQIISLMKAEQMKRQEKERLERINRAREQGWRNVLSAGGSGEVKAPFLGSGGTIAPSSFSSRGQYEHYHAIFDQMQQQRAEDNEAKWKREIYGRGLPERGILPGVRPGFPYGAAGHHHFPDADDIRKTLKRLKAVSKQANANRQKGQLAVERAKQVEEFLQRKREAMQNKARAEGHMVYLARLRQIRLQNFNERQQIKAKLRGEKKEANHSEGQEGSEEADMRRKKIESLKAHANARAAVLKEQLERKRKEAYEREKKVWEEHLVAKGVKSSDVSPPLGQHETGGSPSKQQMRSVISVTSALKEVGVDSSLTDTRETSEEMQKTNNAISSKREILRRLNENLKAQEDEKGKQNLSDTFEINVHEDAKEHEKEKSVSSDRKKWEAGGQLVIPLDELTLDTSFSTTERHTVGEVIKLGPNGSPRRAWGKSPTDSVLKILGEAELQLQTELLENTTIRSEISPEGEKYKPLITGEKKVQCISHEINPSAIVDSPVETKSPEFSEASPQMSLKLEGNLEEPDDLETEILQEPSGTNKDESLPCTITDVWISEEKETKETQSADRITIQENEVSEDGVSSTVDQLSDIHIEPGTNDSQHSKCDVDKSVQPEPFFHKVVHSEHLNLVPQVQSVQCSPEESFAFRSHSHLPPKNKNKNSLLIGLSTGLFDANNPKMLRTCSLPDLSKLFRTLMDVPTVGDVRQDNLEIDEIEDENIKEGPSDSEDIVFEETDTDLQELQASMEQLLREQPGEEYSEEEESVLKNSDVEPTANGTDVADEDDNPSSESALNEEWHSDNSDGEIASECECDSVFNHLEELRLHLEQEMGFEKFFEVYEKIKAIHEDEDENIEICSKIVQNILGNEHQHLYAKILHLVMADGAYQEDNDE

Sample 1
Structure (SMILES): Cn1cc(/C=C2\C(=O)Nc3ccc(S(N)(=O)=O)cc32)c2ccccc21
Observed: enzyme activity
Action: inhibitor
Tested at: 0.5 µM
Baseline: control
| target | remaining activity [%] |
| --- | --- |
| MAP2K2 (Homo sapiens, UniProt P36507) | 94.7 |
| FGFR3 (Homo sapiens, UniProt P22607) | 33.8 |
| MAPK3 (Homo sapiens, UniProt P27361) | 109 |
| ACVR1B (Homo sapiens, UniProt P36896) | 98.4 |
| EPHA3 (Homo sapiens, UniProt P29320) | 80.9 |
| TAOK2 (Homo sapiens, UniProt Q9UL54) | 86.4 |
| ULK2 (Homo sapiens, UniProt Q8IYT8) | 72.3 |
| CSNK1G2 (Homo sapiens, UniProt P78368) | 100 |
| FRK (Homo sapiens, UniProt P42685) | 97.1 |
| RPS6KA2 (Homo sapiens, UniProt Q15349) | 9.26 |
| FGFR1 (Homo sapiens, UniProt P11362) | 50.2 |
| NEK1 (Homo sapiens, UniProt Q96PY6) | 68.5 |
| NEK6 (Homo sapiens, UniProt Q9HC98) | 98.6 |
| GRK7 (Homo sapiens, UniProt Q8WTQ7) | 20.9 |

Sample 2
Species: mouse
Sample: microsomes or S9
Tested at: 2 µM
Time: 0.5 h
| Structure (SMILES) | remaining compound [%] |
| --- | --- |
| N=c1sc2cc(OC(F)(F)F)ccc2n1CCO | 66.5 |
| CC(C)n1[nH]c(=O)c2c1NC(=O)CC2c1cnn(C)c1 (centres unmarked) | 32.4 |
| COc1c(F)ccc(-c2cn([C@@H](CC(C)C)C(N)=O)nn2)c1F | 5.84 |
| N#Cc1ccnc(-n2cnc(Br)n2)c1 | 66 |
| O=C(O)c1sc(C(=O)O)c(OCCO)c1OCCO | 66.3 |
| O=C(CCCOc1ccc(Cl)cc1Cl)Nc1cccc(-c2nnc(-c3ccco3)o2)c1 | > 99.9 |

Sample 3
Cell line: HaCaT
Tested at: 100 µM
Time: 18 h
| Structure (SMILES) | viability |
| --- | --- |
| CC(=O)[C@H]1CC[C@H]2[C@@H]3CCC4=CC(=O)CC[C@]4(C)[C@H]3CC[C@]12C | 96.2% |
| Cc1cc(Nc2ncc(Cl)c(Nc3ccccc3S(=O)(=O)C(C)C)n2)c(OC(C)C)cc1C1CCNCC1 | 17% |
| CC1Cc2ccccc2N1NC(=O)c1ccc(Cl)c(S(N)(=O)=O)c1 (centres unmarked) | 100% |
| COc1cc(C[C@H]2C(=O)OC[C@@H]2Cc2ccc(OC)c(OC)c2)ccc1O | 115% |
| CCOc1nc2cccc(C(=O)OCc3oc(=O)oc3C)c2n1Cc1ccc(-c2ccccc2-c2noc(=O)[nH]2)cc1 | 91.5% |
| CCCCC[C@H](O)/C=C/[C@H]1[C@H](O)CC(=O)[C@@H]1CCCCCCC(=O)O | 97.7% |
| CCCCOc1ccc(C(=O)CCN2CCCCC2)cc1 | 58% |

Single results of other studies
| Structure (SMILES) | target or system | test system | conditions | how to read | endpoint | result |
| --- | --- | --- | --- | --- | --- | --- |
| CC(C)n1cnc(-c2ccc(F)cc2)c1-c1ncc(C(=O)Nc2ccc(N3CCN(C)CC3)cc2)[nH]1 | – | IPF patients | 60 mg once daily, adverse event | – | abdominal distension incidence | 0% |
| CC(=O)C1=C(C)N(c2cccc(C(F)(F)F)c2)C(=O)N[C@H]1c1ccc(C#N)nc1 | patient-derived normal-adjacent epithelium organoids | – | 1 µM | baseline: DMSO control | viability | 127% |
